{"data": "Published values collected from several papers", "note": "Each line is one published result; not all experiments were run side by side. Values joined by “and” are separate records of one study, mostly repeats; a detail may differ. ± gives the spread as reported."}
{"SMILES": "CCN(CC)CC(=O)Nc1cccc(-n2cc(-c3ccc4ccc(-c5cn(-c6cccc(NC(=O)CN(CC)CC)c6)nn5)cc4c3)nn2)c1", "tested on": "RCC4", "test": "PCR angiogenesis array, item: FN1", "conditions": "5 x IC50, 2 h, normoxia", "how to read": "reference: untreated", "endpoint": "fold regulation", "value": 1.14}
{"SMILES": "Nc1ncc(-c2cc(-c3cnn(CC(F)(F)F)c3)ncc2F)nc1C(=O)NC1CNCC(F)C1 (stereo not shown)", "tested on": "FLT3(ITD)", "test": "KINOMEscan competition binding", "conditions": "1 µM", "how to read": "reference: DMSO control", "endpoint": "remaining binding", "value": "76%"}
{"SMILES": "O=C(N/N=C/c1ccc(C[n+]2ccccc2)cc1)c1cncc(C(=O)N/N=C/c2ccc(C[n+]3ccccc3)cc2)n1", "tested on": "hp2 hairpin duplex DNA", "test": "FRET melting", "conditions": "1 µM", "endpoint": "ΔTm", "value": "1.3 °C"}
{"SMILES": "C=CC(=O)Nc1cccc(Cn2ncc3cnc(Nc4cnn(CCOC)c4)nc32)c1", "tested on": "FYN human", "test": "binding, KINOMEscan", "conditions": "100 nM", "how to read": "lower = stronger binding", "endpoint": "percent of control", "value": "100%"}
{"SMILES": "O=[N+]([O-])C(=C\\Nc1ccccc1O)/C=N/c1ccccc1O", "tested on": "Mus musculus", "test": "gene silencing, high-content imaging", "system": "LDR reporter GFP cells", "conditions": "30 h, retest, mean of two runs", "endpoint": "Emax", "value": "28%"}
{"SMILES": "CC[n+]1cccc2cc(/C=N/NC(=O)N/N=C/c3ccc4c(ccc[n+]4CC)c3)ccc21", "tested on": "hp2 hairpin duplex DNA", "test": "FRET melting", "conditions": "1 µM, with: ds26 10 µM", "endpoint": "ΔTm", "value": "1.2 ± 0.4 °C"}
{"SMILES": "Cc1ncsc1-c1ccc(C(C)NC(=O)C2CC(O)CN2C(=O)C(NC(=O)CCCCCCCCCCN2CCCC(Nc3ncc(Cl)c(Nc4ccccc4S(=O)(=O)C(C)C)n3)C2)C(C)(C)C)cc1 (stereo not shown)", "tested on": "22Rv1", "test": "RNA-seq, item: PERCC1 mRNA", "conditions": "concentration not given", "how to read": "reference: DMSO", "endpoint": "log2 fold change", "value": -2.54}
{"SMILES": "COc1ccc2c(C)nc(Nc3nc(O)cc(-c4ccccc4)n3)nc2c1", "tested on": "Mus musculus", "test": "gene silencing, high-content imaging", "system": "LDR reporter GFP cells", "conditions": "confirmation, mean of two runs", "endpoint": "EC50", "value": "5.62 µM"}
{"SMILES": "CNS(=O)(=O)Nc1nccc(Cc2c(C)c3ccc(Oc4ncccc4F)cc3oc2=O)c1F", "tested on": "Maver1", "test": "cell viability", "conditions": "7 days", "endpoint": "IC50", "value": "> 1 µM"}
{"SMILES": "O=C(N/N=C/c1ccccn1)c1cc(-c2ccc(Cl)cc2)nc2ccccc12", "tested on": "Mus musculus", "test": "gene silencing, high-content imaging", "system": "LDR reporter GFP cells", "conditions": "retest, mean of two runs", "endpoint": "EC50", "value": "10 µM"}
{"SMILES": "O=C(N/N=C/c1cc[n+](Cc2ccccc2)c2ccccc12)c1ccc2ccc3ccc(C(=O)N/N=C/c4cc[n+](Cc5ccccc5)c5ccccc45)nc3c2n1", "tested on": "MYC parallel G4 DNA", "test": "FRET melting", "conditions": "1 µM, DNA 0.2 µM", "endpoint": "ΔTm", "value": "11.9 ± 0.4 °C"}
{"SMILES": "CC(C)C[C@H](NC(=O)[C@H](CC(=O)O)NC(=O)CNC(=O)[C@@H](N)CCCNC(=N)N)C(=O)N[C@@H](C)C(=O)N[C@H](C(=O)N[C@@H](CC(C)C)C(=O)N[C@@H](CCCNC(=N)N)C(=O)N[C@@H](CCC(N)=O)C(=O)N[C@@H](CC(C)C)C(=O)N[C@@H](C)C(=O)N[C@@H](CCC(N)=O)C(=O)N[C@@H](CCC(=O)O)C(=O)N[C@@H](CC(=O)O)C(=O)NCC(=O)N[C@H](C(=O)N[C@H](C(=O)NCC(=O)N[C@H](C(=O)N[C@@H](CCCNC(=N)N)C(=O)NCCOCCOCCOCCOCCOCCOCCOCCOCCOCCOCCOCCOCCC(=O)N[C@@H](CS)C(N)=O)C(C)C)C(C)C)C(C)C)[C@@H](C)O", "test": "ex vivo NIR imaging", "system": "NOD/SCID mice, xenograft, H460 xenograft", "conditions": "intravenous, 30 µg, 24 h", "how to read": "reference: liver", "endpoint": "fluorescence signal ratio", "value": "0.069 and 0.005"}
{"SMILES": "C[n+]1ccc(/C=N/NC(=O)c2cccc(C(=O)N/N=C/c3cc[n+](C)cc3)c2)cc1", "tested on": "MYC parallel G4 DNA", "test": "FRET melting", "conditions": "1 µM, DNA 0.2 µM, with: duplex DNA competitor 10 µM", "endpoint": "ΔTm", "value": "2.2 ± 0.2 °C"}
{"SMILES": "COC1OC(C)C(OC2OC(C)C(O)C(OC3OC(C)C(OC4OC(C)C(O)C(OC5OC(C)C(OC6OC(C)C(O)C(OC7OC(C)C(OC8OC(C)C(O)C(OC9OC(C)C(OC%10OC(C)C(O)C(OC%11OC(C)C(OC%12OC(C)C(O)C(OS(=O)(=O)O)C%12OS(=O)(=O)O)C(OS(=O)(=O)O)C%11OS(=O)(=O)O)C%10OS(=O)(=O)O)C(OS(=O)(=O)O)C9OS(=O)(=O)O)C8OS(=O)(=O)O)C(OS(=O)(=O)O)C7OS(=O)(=O)O)C6OS(=O)(=O)O)C(OS(=O)(=O)O)C5OS(=O)(=O)O)C4OS(=O)(=O)O)C(OS(=O)(=O)O)C3OS(=O)(=O)O)C2OS(=O)(=O)O)C(OS(=O)(=O)O)C1OS(=O)(=O)O (stereo not shown)", "system": "human plasma", "conditions": "128 µg/mL", "endpoint": "prothrombin time", "value": "14.7 ± 0.3 s"}
{"SMILES": "C[n+]1ccc(/C=N/NC(=O)C(=O)N/N=C/c2cc[n+](C)cc2)cc1", "tested on": "MYC parallel G4 DNA", "test": "FRET melting", "conditions": "1 µM, DNA 0.2 µM", "endpoint": "ΔTm", "value": "2.4 ± 1.1 °C"}
{"SMILES": "COC1CN([C@H]2CC[C@H]([C@@]3(C)Oc4c(Cl)cc(C(=O)NCc5c(SC)cc(C)[nH]c5=O)c(C)c4O3)CC2)C1", "test": "RNA-seq, item: SMPD3", "system": "human, whole blood", "conditions": "dose not given, 24 h", "how to read": "reference: pretreatment baseline", "endpoint": "log2 fold change", "value": 1.39}
